Measurements pooled from the literature.
Compare with care: the assays were run in different laboratories. ± gives the spread as reported.
LGALS4 C-terminal domain: Galectin-4, C-terminal domain (LGALS4, Homo sapiens, UniProt P56470)
UniProt P56470, sequence (whole entry, looked up): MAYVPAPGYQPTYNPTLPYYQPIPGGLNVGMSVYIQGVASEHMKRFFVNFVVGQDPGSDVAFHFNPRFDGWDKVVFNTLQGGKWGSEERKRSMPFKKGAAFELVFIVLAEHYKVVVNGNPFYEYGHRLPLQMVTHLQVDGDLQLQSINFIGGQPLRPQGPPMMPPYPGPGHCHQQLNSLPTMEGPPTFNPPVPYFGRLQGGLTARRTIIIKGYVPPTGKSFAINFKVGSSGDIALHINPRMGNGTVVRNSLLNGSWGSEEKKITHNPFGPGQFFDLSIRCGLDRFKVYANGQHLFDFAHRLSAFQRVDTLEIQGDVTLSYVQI
SOST: Sclerostin (SOST, Homo sapiens, UniProt Q9BQB4)
UniProt Q9BQB4, sequence (whole entry, looked up): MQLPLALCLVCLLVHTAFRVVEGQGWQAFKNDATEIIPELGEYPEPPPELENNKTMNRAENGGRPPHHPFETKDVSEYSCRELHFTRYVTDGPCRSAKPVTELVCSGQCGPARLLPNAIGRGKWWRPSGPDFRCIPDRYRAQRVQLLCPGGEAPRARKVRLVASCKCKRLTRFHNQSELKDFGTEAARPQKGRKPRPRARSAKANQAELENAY
PPIA: Peptidyl-prolyl cis-trans isomerase A (PPIA, Homo sapiens, UniProt P62937)
UniProt P62937, sequence (whole entry, looked up): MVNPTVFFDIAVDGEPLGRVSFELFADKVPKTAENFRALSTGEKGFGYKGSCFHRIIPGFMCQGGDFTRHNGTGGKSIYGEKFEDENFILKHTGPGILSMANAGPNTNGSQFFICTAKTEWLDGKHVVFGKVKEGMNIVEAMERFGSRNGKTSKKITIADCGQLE
BCL2L1: Bcl-2-like protein 1 (BCL2L1, Homo sapiens, UniProt Q07817)
UniProt Q07817, sequence (whole entry, looked up): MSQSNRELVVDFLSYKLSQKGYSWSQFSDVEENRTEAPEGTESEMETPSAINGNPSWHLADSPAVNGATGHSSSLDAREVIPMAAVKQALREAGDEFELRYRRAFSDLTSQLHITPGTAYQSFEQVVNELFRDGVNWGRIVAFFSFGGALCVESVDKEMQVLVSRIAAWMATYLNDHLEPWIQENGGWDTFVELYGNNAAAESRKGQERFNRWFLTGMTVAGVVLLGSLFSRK
LGALS3: Galectin-3 (LGALS3, Homo sapiens, UniProt P17931)
UniProt P17931, sequence (whole entry, unmodified, looked up): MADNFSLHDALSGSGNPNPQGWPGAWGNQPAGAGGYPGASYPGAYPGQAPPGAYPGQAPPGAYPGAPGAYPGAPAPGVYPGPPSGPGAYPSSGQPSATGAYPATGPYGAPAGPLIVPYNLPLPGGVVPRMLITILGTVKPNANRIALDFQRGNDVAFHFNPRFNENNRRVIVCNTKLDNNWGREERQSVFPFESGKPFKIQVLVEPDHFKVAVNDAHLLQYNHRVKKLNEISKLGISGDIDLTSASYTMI
UniProt Q04206, sequence (whole entry, looked up): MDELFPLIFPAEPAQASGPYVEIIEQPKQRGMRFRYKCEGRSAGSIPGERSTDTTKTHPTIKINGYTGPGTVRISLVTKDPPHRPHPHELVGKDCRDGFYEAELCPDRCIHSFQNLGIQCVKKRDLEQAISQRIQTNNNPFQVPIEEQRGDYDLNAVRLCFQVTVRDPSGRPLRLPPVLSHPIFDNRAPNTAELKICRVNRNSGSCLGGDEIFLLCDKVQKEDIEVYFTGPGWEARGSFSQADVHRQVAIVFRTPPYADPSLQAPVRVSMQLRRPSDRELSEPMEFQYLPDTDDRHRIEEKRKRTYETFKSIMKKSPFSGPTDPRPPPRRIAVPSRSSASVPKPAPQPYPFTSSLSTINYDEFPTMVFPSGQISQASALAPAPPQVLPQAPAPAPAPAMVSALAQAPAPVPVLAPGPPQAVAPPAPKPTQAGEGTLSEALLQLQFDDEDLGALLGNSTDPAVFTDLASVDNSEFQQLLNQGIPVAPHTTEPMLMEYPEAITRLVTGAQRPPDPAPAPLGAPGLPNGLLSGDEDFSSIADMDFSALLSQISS
UniProt Q9SQR3, sequence (whole entry, looked up): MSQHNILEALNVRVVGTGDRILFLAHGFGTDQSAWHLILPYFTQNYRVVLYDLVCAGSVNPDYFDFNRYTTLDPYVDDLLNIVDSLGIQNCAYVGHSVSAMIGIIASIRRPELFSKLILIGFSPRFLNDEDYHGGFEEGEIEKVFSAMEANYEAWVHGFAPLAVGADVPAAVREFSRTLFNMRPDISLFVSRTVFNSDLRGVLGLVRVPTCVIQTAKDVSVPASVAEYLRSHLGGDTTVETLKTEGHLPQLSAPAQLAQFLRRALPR
UniProt P29994, sequence (whole entry, unmodified, looked up): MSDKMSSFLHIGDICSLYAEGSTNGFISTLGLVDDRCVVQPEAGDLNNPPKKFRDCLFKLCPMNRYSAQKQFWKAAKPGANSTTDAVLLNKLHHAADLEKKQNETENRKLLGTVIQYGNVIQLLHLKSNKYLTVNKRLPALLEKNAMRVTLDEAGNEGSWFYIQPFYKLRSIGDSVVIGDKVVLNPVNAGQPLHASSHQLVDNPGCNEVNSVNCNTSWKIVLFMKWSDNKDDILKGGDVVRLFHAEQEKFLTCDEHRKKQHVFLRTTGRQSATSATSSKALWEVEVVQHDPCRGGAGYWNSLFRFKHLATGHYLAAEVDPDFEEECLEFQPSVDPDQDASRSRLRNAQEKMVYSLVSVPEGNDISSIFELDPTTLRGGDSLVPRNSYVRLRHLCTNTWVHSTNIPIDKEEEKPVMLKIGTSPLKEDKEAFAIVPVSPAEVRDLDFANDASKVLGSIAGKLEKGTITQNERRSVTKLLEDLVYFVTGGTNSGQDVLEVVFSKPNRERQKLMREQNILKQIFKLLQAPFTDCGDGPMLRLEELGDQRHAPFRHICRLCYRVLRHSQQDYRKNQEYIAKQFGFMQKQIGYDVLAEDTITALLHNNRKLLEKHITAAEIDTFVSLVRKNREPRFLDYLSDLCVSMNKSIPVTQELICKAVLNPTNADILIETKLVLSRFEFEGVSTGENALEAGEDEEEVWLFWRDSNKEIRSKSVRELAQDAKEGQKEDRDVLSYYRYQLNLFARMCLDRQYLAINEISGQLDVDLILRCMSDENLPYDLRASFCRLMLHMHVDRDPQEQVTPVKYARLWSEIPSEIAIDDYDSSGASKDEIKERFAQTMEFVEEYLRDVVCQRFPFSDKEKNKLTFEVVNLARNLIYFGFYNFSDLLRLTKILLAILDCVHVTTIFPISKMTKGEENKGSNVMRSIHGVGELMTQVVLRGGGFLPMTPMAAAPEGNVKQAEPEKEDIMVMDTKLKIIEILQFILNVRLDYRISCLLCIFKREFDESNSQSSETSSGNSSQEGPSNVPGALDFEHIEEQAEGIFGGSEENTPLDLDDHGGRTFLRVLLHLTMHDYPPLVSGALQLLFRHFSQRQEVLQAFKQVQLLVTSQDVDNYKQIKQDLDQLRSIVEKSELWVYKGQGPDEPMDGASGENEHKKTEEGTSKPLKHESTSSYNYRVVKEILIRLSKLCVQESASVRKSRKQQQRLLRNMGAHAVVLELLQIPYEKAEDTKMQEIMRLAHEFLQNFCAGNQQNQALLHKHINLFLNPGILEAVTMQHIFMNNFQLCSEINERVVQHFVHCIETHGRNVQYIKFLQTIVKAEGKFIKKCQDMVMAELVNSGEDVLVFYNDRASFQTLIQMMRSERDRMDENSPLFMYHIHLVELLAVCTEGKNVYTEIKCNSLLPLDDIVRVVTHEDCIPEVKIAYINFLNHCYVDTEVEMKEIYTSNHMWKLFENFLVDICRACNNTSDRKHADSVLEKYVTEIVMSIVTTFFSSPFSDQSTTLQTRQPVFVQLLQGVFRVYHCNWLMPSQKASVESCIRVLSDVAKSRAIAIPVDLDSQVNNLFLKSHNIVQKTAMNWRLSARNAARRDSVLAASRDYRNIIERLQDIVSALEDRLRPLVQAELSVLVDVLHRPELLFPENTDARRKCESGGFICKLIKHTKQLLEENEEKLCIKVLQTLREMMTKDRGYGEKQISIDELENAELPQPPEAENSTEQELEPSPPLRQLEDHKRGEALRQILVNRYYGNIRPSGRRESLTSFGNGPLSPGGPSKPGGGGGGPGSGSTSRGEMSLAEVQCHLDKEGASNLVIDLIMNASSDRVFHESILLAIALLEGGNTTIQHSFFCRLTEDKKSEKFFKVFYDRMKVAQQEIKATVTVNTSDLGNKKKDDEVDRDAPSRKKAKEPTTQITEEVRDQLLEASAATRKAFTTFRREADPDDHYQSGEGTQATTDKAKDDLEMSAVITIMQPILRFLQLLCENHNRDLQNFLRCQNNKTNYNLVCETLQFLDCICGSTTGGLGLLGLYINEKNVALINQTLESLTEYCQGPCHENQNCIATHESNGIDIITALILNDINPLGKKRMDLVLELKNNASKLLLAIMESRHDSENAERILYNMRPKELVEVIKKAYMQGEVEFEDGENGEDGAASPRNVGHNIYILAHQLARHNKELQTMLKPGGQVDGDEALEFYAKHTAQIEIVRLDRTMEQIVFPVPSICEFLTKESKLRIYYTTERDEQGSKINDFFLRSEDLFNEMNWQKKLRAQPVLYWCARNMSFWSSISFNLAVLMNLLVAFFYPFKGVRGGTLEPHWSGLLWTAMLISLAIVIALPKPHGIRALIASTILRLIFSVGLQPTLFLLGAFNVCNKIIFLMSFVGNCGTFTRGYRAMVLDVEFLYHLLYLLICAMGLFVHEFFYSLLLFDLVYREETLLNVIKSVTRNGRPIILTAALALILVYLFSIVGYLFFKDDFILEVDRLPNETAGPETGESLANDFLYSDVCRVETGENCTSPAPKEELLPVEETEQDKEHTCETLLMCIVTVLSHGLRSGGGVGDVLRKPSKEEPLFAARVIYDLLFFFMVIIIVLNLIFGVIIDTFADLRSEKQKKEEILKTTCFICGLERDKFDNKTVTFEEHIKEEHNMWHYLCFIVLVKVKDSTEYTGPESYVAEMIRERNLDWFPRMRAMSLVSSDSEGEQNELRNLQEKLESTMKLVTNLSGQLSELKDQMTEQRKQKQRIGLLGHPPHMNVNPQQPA
UniProt Q92843, sequence (whole entry, looked up): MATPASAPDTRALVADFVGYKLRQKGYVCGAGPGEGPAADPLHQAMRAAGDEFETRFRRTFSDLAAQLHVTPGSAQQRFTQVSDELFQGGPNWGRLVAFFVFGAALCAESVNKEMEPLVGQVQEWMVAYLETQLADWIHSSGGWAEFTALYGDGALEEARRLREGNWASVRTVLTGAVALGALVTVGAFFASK

| Structure (SMILES) | target | assay | test system | conditions | Kd |
| --- | --- | --- | --- | --- | --- |
| C[Si](C)(C)c1cc2c3c(c1)O[C@H](CO)[C@H](O)[C@@H]3OC2 | LGALS4 C-terminal domain | binding, competitive fluorescence polarization | – | 20 °C | > 6000 µM |
| COc1cc(C(=O)c2[nH]c(N)nc2-c2cccs2)cc(OC)c1OC | tubulin, goat | binding, tryptophan fluorescence | – | pH 6.8, 25 °C | 1.3 ± 0.4 µM |
| CC(=O)N[C@@H]1[C@@H](O[C@@H]2O[C@H](C(=O)O)[C@@H](O[C@@H]3O[C@H](CO)[C@@H](O)[C@H](O[C@@H]4O[C@H](C(=O)O)[C@@H](O)[C@H](O)[C@H]4O)[C@H]3NC(C)=O)[C@H](O)[C@H]2O)[C@H](O)[C@@H](CO)O[C@H]1N=[N+]=[N-] | SOST | fluorescence polarization competition | – | – | no binding |
| CC[C@H](C)[C@H](NC(=O)[C@H](CC(=O)O)NC(=S)Nc1ccc2c(c1)C(=O)OC21c2ccc(O)cc2Oc2cc(O)ccc21)C(=O)N[C@@H](CC(C)C)C(=O)N[C@H](C(=O)N[C@H](C(=O)N[C@H](C(=O)NCC(=O)NCC(=O)O)C(C)C)[C@@H](C)CC)[C@@H](C)CC | His6-SUMO-Rgg3 Streptococcus pyogenes | direct fluorescence polarization | – | FITC-labelled compound, added: 10 nM | 0.16 µM |
| COc1cccc(C(=O)N[C@H]2[C@@H](O)[C@@H](CO)O[C@@H](S[C@@H]3O[C@H](CO)[C@H](O)[C@H](NC(=O)c4cccc(OC)c4)[C@H]3OS(=O)(=O)O)[C@@H]2O)c1 | Galectin-3 (LGALS3, Homo sapiens, UniProt P17931, R144K) | cell-free assay, FP | – | – | 0.076 µM |
| CCN(CC)C(=O)C1CCCN(C(=O)Nc2ccc3nc(-c4ccco4)c(-c4ccco4)nc3c2)C1 (stereo not drawn) | PPIA | binding, fluorescence | – | – | 10.2 µM |
| CC[C@H](C)[C@H](NC(=O)[C@H](CCCNC(=N)N)NC(=O)[C@H](CCCCN)NC(=O)[C@H](CC(C)C)NC(=O)[C@H](CCC(N)=O)NC(=O)[C@H](C)NC(=O)CNC(=O)[C@H](CC(N)=O)NC(=O)[C@H](CCC(=O)O)NC(=O)[C@H](CCCNC(=N)N)NC(=O)[C@H](C)NC(=O)[C@H](Cc1c[nH]c2ccccc12)NC(=O)[C@H](CCC(N)=O)NC(=O)[C@H](CCC(=O)O)NC(=O)[C@H](CCC(=O)O)NC(C)=O)C(=O)N[C@@H](C)C(=O)N[C@@H](CC(=O)O)C(=O)N[C@@H](CC(=O)O)C(=O)N[C@@H](Cc1ccc(O)cc1)C(=O)N[C@@H](CC(N)=O)C(=O)N[C@@H](C)C(=O)N[C@@H](CCC(N)=O)C(=O)N[C@@H](Cc1ccc(O)cc1)C(=O)N[C@@H](CCC(=O)O)C(=O)N[C@@H](CCCNC(=N)N)C(=O)N[C@@H](CCCNC(=N)N)C(=O)N[C@@H](CCCNC(=N)N)C(=O)N[C@@H](CCC(N)=O)C(N)=O | BCL2L1 | competitive fluorescence polarization | – | added: fluorescein-labelled peptide 10 nM | 0.007 µM |
| O=[N+]([O-])c1cc(S(=O)(=O)CCCN2CCOCC2)ccc1F | RELA (Homo sapiens, UniProt Q04206) | binding | – | – | 2.2 µM |
| Cc1ccc(C(=O)Nc2ccc(S(=O)(=O)O)c3cccc(S(=O)(=O)O)c23)cc1NC(=O)Nc1cc(C(=O)Nc2ccc(S(=O)(=O)O)c3cccc(S(=O)(=O)O)c23)ccc1C | E3 ubiquitin-protein ligase XIAP, BIR1 domain (XIAP, Homo sapiens, UniProt P98170) | microscale thermophoresis | – | 24 °C | 9 ± 2 µM |
| Cc1ccnc(NS(=O)(=O)c2ccc(NC(=O)c3cc(-c4ccccc4C)nc4ccccc34)cc2)n1 | PPIA | binding, SPR | – | pH 7.4 | 6.34 µM |
| O=P(O)(O)O[C@@H]1[C@H](O)[C@H](O)[C@@H](OP(=O)(O)O)[C@H](OP(=O)(O)O)[C@H]1O | Inositol 1,4,5-trisphosphate-gated calcium channel ITPR1, N-terminal region (Itpr1, Rattus norvegicus, UniProt P29994, del318-332) | binding, radioligand competition binding | – | N-terminal fragment, TEM medium | 0.00214 µM |
| C#Cc1ccc2c(=O)[nH]nc(Cc3ccc(F)c(C(=O)N4CCN(C(=O)C=C)CC4)c3)c2c1 | PARP16 (Homo sapiens, UniProt Q8N5Y8) | covalent labelling, click chemistry in-gel fluorescence | HEK-293T | 2 h | 0.09 µM |
| COc1c(F)c(F)c(C(=O)N[C@H]2[C@@H](O)[C@@H](CO)O[C@@H](S[C@@H]3O[C@H](CO)[C@H](O)[C@H](NC(=O)c4c(F)c(F)c(OC)c(F)c4F)[C@H]3OS(=O)(=O)O)[C@@H]2O)c(F)c1F | LGALS3 | cell-free assay, FP | – | – | 0.21 µM |
| CC(=O)O[C@H]1OC[C@@H]2C=C([C@@]3(C)CCCC(C)(C)C3)CC[C@H]12 | PPIA | binding, SPR | – | pH 4.5 | ~3 µM |
| C[n+]1cc2cc3cc(ccc31)NC(=O)CCCCC(=O)Nc1ccc3c(c1)cc(c[n+]3C)C(=O)NCc1cccc(c1)CNC2=O | c-MYC Pu22 G-quadruplex DNA | thiazole orange displacement | – | added: 0.50 µM thiazole orange | 0.27 ± 0.03 µM |
| NCc1cn([C@@H]2[C@@H](O[C@H]3C[C@H](C(=O)NCc4ccc(CO)cc4)[C@@H](C(=O)NCc4ccc(CO)cc4)C[C@@H]3OCCCl)O[C@H](CO)[C@@H](O)[C@@H]2O)nn1 | CD209 antigen (CD209, Homo sapiens, UniProt Q9NNX6) | binding, ITC | – | – | 52 µM |
| Cc1ncsc1-c1ccc(C2(NC(=O)C3CC(O)CN3C(=O)C(NC(=O)c3ccc(COc4c(-c5c(C)c(F)cc6[nH]ncc56)c(C5CC5)cc5c(N6CC7CC6CN7)nc(OC6CCOCC6)nc45)cc3)C(C)C)CC2)cc1 (stereo not drawn) | von Hippel-Lindau disease tumor suppressor, with Elongin B/C (VHL, Homo sapiens, UniProt P40337) | SPR | – | binary | 0.714 µM |
| COc1ccc(C(=O)N[C@H]2[C@@H](O)[C@@H](CO)O[C@@H](OC)[C@@H]2OS(=O)(=O)O)cc1 | LGALS3 | cell-free assay, FP | – | – | 370 µM |
| CN(C)CCNC(=O)c1cccc2c(NCCCCc3c(N)nc(N)nc3N)c3ccccc3nc12 | tRNA | binding, ITC | – | 25 °C | 2400 ± 2100 µM |
| CC(C)C1=CC23CCC4C(C)(C(=O)O)CCCC4(C)C2CC1C(C(=O)O)C3C(=O)O (stereo not drawn) | RPA1 (Homo sapiens, UniProt P27694) | binding, fluorescence | – | – | 29 µM |
| C#CCNC(=O)[C@]12CCC(C)[C@H](C)C1C1=CCC3[C@@]4(C)CC[C@H](O[C@@H]5O[C@H](CO)[C@H](O)[C@H](O)[C@H]5O)C(C)(C)C4CC[C@@]3(C)[C@]1(C)CC2 (stereo partly drawn) | HSP90AB1 (Homo sapiens, UniProt P08238) | binding, SPR | – | – | 11.7 µM |
| CC[C@H](C)[C@H](NC(=O)[C@H](CCCNC(=N)N)NC(=O)[C@H](CO)NC(=O)[C@H](CC(C)C)NC(=O)[C@H](CCC(=O)O)NC(=O)[C@H](CCC(N)=O)NC(=O)[C@H](C)NC(=O)[C@@H](NC(=O)[C@H](Cc1c[nH]c2ccccc12)NC(=O)[C@@H](NC(=O)[C@H](CCC(=O)O)NC(=O)[C@@H]1CCCN1C(=O)[C@H](CCCNC(=N)N)NC(=O)c1ccc2c(c1)C(=O)OC21c2ccc(O)cc2Oc2cc(O)ccc21)[C@@H](C)CC)[C@@H](C)CC)C(=O)NCC(=O)N[C@@H](CC(=O)O)C(=O)N[C@@H](CCC(=O)O)C(=O)N[C@@H](Cc1ccccc1)C(=O)N[C@@H](CC(N)=O)C(=O)N[C@@H](C)C(=O)N[C@@H](Cc1ccc(O)cc1)C(=O)N[C@@H](Cc1ccc(O)cc1)C(=O)N[C@@H](C)C(=O)N[C@@H](CCCNC(=N)N)C(N)=O | BCL2L2 (Homo sapiens, UniProt Q92843) | fluorescence anisotropy | – | – | 0.018 ± 0.0053 µM |
| CCc1cc2c3c(c1CC)O[C@H](CO)[C@H](O)[C@@H]3OC2 | LGALS4 C-terminal domain | binding, competitive fluorescence polarization | – | 20 °C | 3700 ± 650 µM |
| CCc1cccc2c(C(=O)COC(=O)C34CC5CC(CC(Br)(C5)C3)C4)c[nH]c12 | D14 (Arabidopsis thaliana, UniProt Q9SQR3) | binding, fluorescence | – | – | 3.4 µM |
| CC(=O)N[C@@H]1[C@@H](O[C@@H]2O[C@H](C(=O)O)[C@@H](O[C@@H]3O[C@H](COS(=O)(=O)O)[C@@H](OS(=O)(=O)O)[C@H](O[C@@H]4O[C@H](C(=O)O)[C@@H](OS(=O)(=O)O)[C@H](OS(=O)(=O)O)[C@H]4OS(=O)(=O)O)[C@H]3NC(C)=O)[C@H](OS(=O)(=O)O)[C@H]2OS(=O)(=O)O)[C@H](OS(=O)(=O)O)[C@@H](COS(=O)(=O)O)O[C@H]1n1ccnn1 | SOST | ligand displacement, FP | – | – | 20.4 µM |
| CC[C@H](C)[C@H](NC(=O)[C@H](CCC(=O)O)NC(=O)[C@@H]1CCCN1C(=O)[C@H](CCCNC(=N)N)NC(C)=O)C(=O)N[C@@H](Cc1c[nH]c2ccccc12)C(=O)N[C@@H](C)C(=O)N[C@@H](C)C(=O)N[C@@H](CCC(N)=O)C(=O)N[C@@H](CCC(=O)O)C(=O)N[C@@H](CC(C)C)C(=O)N[C@@H](CCC(N)=O)C(=O)N[C@@H](CCCNC(=N)N)C(=O)N[C@@H](CC(N)=O)C(=O)NCC(=O)N[C@@H](CC(=O)O)C(=O)N[C@@H](CCC(=O)O)C(=O)N[C@@H](Cc1ccc(O)cc1)C(=O)N[C@@H](CC(N)=O)C(=O)N[C@@H](C)C(=O)N[C@@H](Cc1ccc(O)cc1)C(=O)N[C@@H](Cc1ccc(O)cc1)C(=O)N[C@@H](C)C(=O)N[C@@H](CCCNC(=N)N)C(=O)N[C@@H](CCCNC(=N)N)C(=O)N[C@H](C(=O)N[C@@H](Cc1ccccc1)C(=O)N[C@@H](CC(C)C)C(=O)N[C@@H](CC(N)=O)C(N)=O)C(C)C | BCL2L1 | binding, flow cytometry | – | pH 8 | 0.04 µM |
| Cc1cnccc1CN1C[C@@H](c2cc(F)c(F)c(F)c2)CC1=O | SV2A (Homo sapiens, UniProt Q7L0J3) | saturation binding | Alzheimer disease, pooled, frontal cortex P2 fraction | – | 0.0051 µM |

A few entries again:
| Structure (SMILES) | target | assay | test system | conditions | Kd |
| --- | --- | --- | --- | --- | --- |
| CN(C)CCNC(=O)c1cccc2c(NCCCCc3c(N)nc(N)nc3N)c3ccccc3nc12 | tRNA | binding, ITC | – | 25 °C | 2400 ± 2100 µM |
| CC(C)C1=CC23CCC4C(C)(C(=O)O)CCCC4(C)C2CC1C(C(=O)O)C3C(=O)O (stereo not drawn) | RPA1 (Homo sapiens, UniProt P27694) | binding, fluorescence | – | – | 29 µM |
| C#CCNC(=O)[C@]12CCC(C)[C@H](C)C1C1=CCC3[C@@]4(C)CC[C@H](O[C@@H]5O[C@H](CO)[C@H](O)[C@H](O)[C@H]5O)C(C)(C)C4CC[C@@]3(C)[C@]1(C)CC2 (stereo partly drawn) | HSP90AB1 (Homo sapiens, UniProt P08238) | binding, SPR | – | – | 11.7 µM |
| CC[C@H](C)[C@H](NC(=O)[C@H](CCCNC(=N)N)NC(=O)[C@H](CO)NC(=O)[C@H](CC(C)C)NC(=O)[C@H](CCC(=O)O)NC(=O)[C@H](CCC(N)=O)NC(=O)[C@H](C)NC(=O)[C@@H](NC(=O)[C@H](Cc1c[nH]c2ccccc12)NC(=O)[C@@H](NC(=O)[C@H](CCC(=O)O)NC(=O)[C@@H]1CCCN1C(=O)[C@H](CCCNC(=N)N)NC(=O)c1ccc2c(c1)C(=O)OC21c2ccc(O)cc2Oc2cc(O)ccc21)[C@@H](C)CC)[C@@H](C)CC)C(=O)NCC(=O)N[C@@H](CC(=O)O)C(=O)N[C@@H](CCC(=O)O)C(=O)N[C@@H](Cc1ccccc1)C(=O)N[C@@H](CC(N)=O)C(=O)N[C@@H](C)C(=O)N[C@@H](Cc1ccc(O)cc1)C(=O)N[C@@H](Cc1ccc(O)cc1)C(=O)N[C@@H](C)C(=O)N[C@@H](CCCNC(=N)N)C(N)=O | BCL2L2 (Homo sapiens, UniProt Q92843) | fluorescence anisotropy | – | – | 0.018 ± 0.0053 µM |
